Measured values gathered from unrelated publications.
Parts stem from different laboratories: compare values within a part only. “And” joins repeats or separate records; there may be more than shown.

Set 1
Cell line: A-375
Tested at: 100 µM
Time: 18 h
The viability of `N=C1CCCN1Cc1[nH]c(=O)[nH]c(=O)c1Cl` is reported as 86.6%.
`CC(=O)Nc1ccc(OC(=O)c2ccccc2OC(C)=O)cc1` has a viability of 99.3%.
`CC(=O)O[C@H]1Cc2ccccc2N(C(N)=O)c2ccccc21` has a viability of 97.7%.
The viability of `C[C@]12CC[C@@H]3c4ccc(OS(=O)(=O)O)cc4CC[C@H]3[C@@H]1CCC2=O` is reported as 106%.
For `CC(C)OC(=O)CCC/C=C\C[C@@H]1[C@@H](CC[C@@H](O)CCc2ccccc2)[C@H](O)C[C@@H]1O`, the viability was 8.41%.
For `Cc1cccc(C)c1NC(=O)C1CCCCN1C` (stereo not shown), the viability was 107%.
For `CCCc1nc2c(C)cc(-c3nc4ccccc4n3C)cc2n1Cc1ccc(-c2ccccc2C(=O)O)cc1`, the viability was 76%.
The viability of `CCOc1nc2cccc(C(=O)OCc3oc(=O)oc3C)c2n1Cc1ccc(-c2ccccc2-c2noc(=O)[nH]2)cc1` is reported as 107%.
With `CO/N=C(\C(=O)N[C@@H]1C(=O)N2C(C(=O)O)=C(CSC(=O)c3ccco3)CS[C@H]12)c1csc(N)n1` the viability was 97.5%.
For `CNC[C@H](O)c1cccc(O)c1`, the viability was 101%.
For `Cc1[nH]cnc1CN1CCc2c(c3ccccc3n2C)C1=O`, the viability was 91.5%.
With `COc1ccc2[nH]c(SCc3ncc(C)c(OC)c3C)nc2c1` the viability was 81%.
`CNS(=O)(=O)Cc1ccc2[nH]cc(CCN(C)C)c2c1` has a viability of 88.3%.
With `CCCCCCNC(=O)n1cc(F)c(=O)[nH]c1=O` the viability was 81.3%.
With `Cc1cc(=O)[nH]c(=S)[nH]1` the viability was 103%.
With `O=C(CS(=O)(=O)Cc1ccccc1)N1CCOCC1` the viability was 105%.

Set 2
Cell line: sample J colorectal tumour organoid
Tested at: 1 µM
Baseline: DMSO
For `CCN(CC)S(=O)(=O)Nc1cccc(-c2ccc3c(NC(=O)C4CC4)n[nH]c3c2)c1`, the viability was 94.4%.
`O=C(Nc1cccnn1)N1CC(CC=Cc2cncc(Oc3ccc(C(F)(F)F)cn3)n2)C1` has a viability of 109%.
`CN1CCN(Cc2cc(NC(=O)c3ccc4c(c3)CN(c3ccccc3)CC4)cc(C(F)(F)F)c2)CC1` gave a viability of 69.9% and 56.9%.
For `O=C(NCc1ccccc1)c1ccc(S(=O)(=O)NCc2ccccc2)cc1`, the viability was 101%.
The viability of `CC(C)C(=O)Nc1n[nH]c2cc(-c3cccc(NS(=O)(=O)C4CC4)c3)ccc12` is reported as 122%.
The viability of `O=C(O)c1ccc(-c2coc3ncc(-c4ccccc4)cc23)cc1Cl` is reported as 106%.
With `COc1cc(Nc2ccnc3ccc(Br)cc23)cc(OC)c1OC` the viability was 71.1%.
For `Cl.Cl.NC1(c2ccc(-c3nc4ccn5c(=O)[nH]nc5c4cc3-c3ccccc3)cc2)CCC1`, the viability was 43.2%.
The viability of `Cc1ncc(-c2cc(Cl)ccc2F)cc1-n1c(=O)n(CC(N)=O)c2ccccc21` is reported as 100%.
`CCC(=N\O)/C(C)=C/c1ccc(F)cc1` gave a viability of 121%.
`CN(C)C(=O)Cn1cc(-c2ccc(-c3nnc4ccccn34)cc2)cn1` has a viability of 109%.
`CCOc1cn(-c2ccc(F)cc2C)nc1C(=O)Nc1ccc(Oc2ccnc3cc(OC)c(OC)cc23)c(F)c1` gave a viability of 40.5% and 38.7%.
For `Cn1cc(-c2ccc3occ(-c4ccccc4-c4ccccc4)c3n2)cn1`, the viability was 134%.
The viability of `CCCCNc1ncc(-c2ccc(CN3CCOCC3)cn2)c(NC2CCC(O)CC2)n1` (stereo not shown) is reported as 109%.
The viability of `CCC(=NO)C(C)=Cc1ccc(F)c(C)c1` is reported as 127%.
The viability of `CC(=O)NCC(=O)N1[C@@H]2CC[C@H]1c1ccc(Nc3ncc(C(F)(F)F)c(NC4CCC4)n3)cc12` is reported as 21.1% and 26.5%.
With `CCNC(=O)c1cc2c(N3CCOC[C@H]3C)ccnc2n1C` the viability was 106% and 98.1%.

Set 3
Target: Lymphokine-activated killer T-cell-originated protein kinase (PBK, Homo sapiens, UniProt Q96KB5)
Read-out: enzyme activity
Action: inhibitor
Tested at: 0.5 µM
Baseline: control
Target sequence (Q96KB5 1-322): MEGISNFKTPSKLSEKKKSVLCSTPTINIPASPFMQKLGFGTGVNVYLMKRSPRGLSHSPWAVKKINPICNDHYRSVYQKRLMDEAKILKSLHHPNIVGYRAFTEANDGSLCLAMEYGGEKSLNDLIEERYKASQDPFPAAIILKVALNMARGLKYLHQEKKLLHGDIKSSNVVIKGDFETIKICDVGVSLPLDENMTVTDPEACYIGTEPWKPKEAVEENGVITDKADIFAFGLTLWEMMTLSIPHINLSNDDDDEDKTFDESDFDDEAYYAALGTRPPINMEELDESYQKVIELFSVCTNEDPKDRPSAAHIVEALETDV
For `COc1ccc(-c2cnc3c(-c4ccsc4)cnn3c2)cc1`, the remaining activity was 91.6%.
`O=C(Nc1ccc(Cl)cc1)c1ccccc1NCc1ccncc1` has a remaining activity of 88.5%.
With `CC(=O)O/N=C1/C(c2c(O)[nH]c3cc(Br)ccc23)=Nc2ccccc21` the remaining activity was 76.8%.
`COc1cc2ncc(-c3ccccc3)nc2cc1OC` has a remaining activity of 85.5%.
For `CC(C)c1nn(-c2c(Cl)cccc2Cl)c2nc(Cc3ccc(OCCO)cc3)[nH]c(=O)c12`, the remaining activity was 101%.
The remaining activity of `O=C1NC(=O)/C(=C/c2ccc3nccnc3c2)S1` is reported as 93%.
`Cc1ccc(NC(=O)c2ccc(CN3CCN(C)CC3)cc2)cc1Nc1nccc(-c2cccnc2)n1` has a remaining activity of 101%.
With `CC(C)[C@H](CO)Nc1nc(Nc2cccc(Cl)c2)c2ncn(C(C)C)c2n1` the remaining activity was 102%.
For `Cc1nc(Nc2ncc(C(=O)Nc3c(C)cccc3Cl)s2)cc(N2CCN(CCO)CC2)n1`, the remaining activity was 101%.
For `O=c1cc(N2CCOCC2)oc2c1ccc1ccccc12`, the remaining activity was 103%.
With `CCOc1cc2ncnc(Nc3cccc(Br)c3)c2cc1OCC` the remaining activity was 102%.
For `C[S+]([O-])c1ccc(-c2nc(-c3ccncc3)c(-c3ccc(F)cc3)[nH]2)cc1` (stereo not shown), the remaining activity was 102%.
With `COc1cc2ncnc(Nc3ccc(OCc4ccccc4)cc3)c2cc1OC` the remaining activity was 109%.
`CN(C)CCCn1cc(C2=C(c3c[nH]c4ccccc34)C(=O)NC2=O)c2ccccc21` has a remaining activity of 81.3%.
The remaining activity of `COc1cc2ncnc(N3CCN(C(=O)Nc4ccc(Oc5ccccc5)cc4)CC3)c2cc1OC` is reported as 85.8%.
`COc1ccc(Cl)cc1NC(=O)Nc1cc(C)nc2ccccc12` gave a remaining activity of 98.5%.
`CCN1/C(=C/C(C)=O)Sc2ccc(OC)cc21` has a remaining activity of 94.8%.
`Cn1cnc2cc3c(Nc4cccc(Br)c4)ncnc3cc21` has a remaining activity of 102%.
`CCC(=O)Nc1ccc2ncnc(Nc3cccc(Br)c3)c2c1` has a remaining activity of 96.2%.
`Nc1[nH]nc2nnc(-c3c(-c4ccccc4)nn4ccccc34)cc12` gave a remaining activity of 95%.
The remaining activity of `CS(=O)(=O)CCNCc1ccc(-c2ccc3ncnc(Nc4ccc(OCc5cccc(F)c5)c(Cl)c4)c3c2)o1` is reported as 105%.
For `Cn1cc(/C=C2\C(=O)Nc3ccc(S(N)(=O)=O)cc32)c2ccccc21`, the remaining activity was 99.6%.

Set 4
SMILES: COc1cc(C(=O)N2CCC(N3CCN(C)CC3)CC2)ccc1Nc1ncc2c(n1)N(C)c1ccccc1C(=O)N2C
Method: KINOMEscan
Tested at: 10 µM
Baseline: DMSO control
Reading: lower = stronger binding
YANK3 — binding: 100%.
ERN1 — binding: 59%.
It gave 100% for binding (CDC2L5).
TTK — binding: 28%.
It gave 93% for binding (PRP4).
TNIK — binding: 100%.
CSNK1G3 — binding: 93%.
TYRO3 — binding: 100%.
For BRAF: binding read 81%.
The binding was 100% (SRC).
It gave 28% for binding (CAMK2D).
FGFR4 — binding: 28%.
For EPHB4: binding read 100%.
The binding was 98% (MST1R).
For NEK1: binding read 83%.
GSK3B — binding: 88%.
The binding was 99% (DYRK1A).
For MERTK: binding read 100%.
YANK1 — binding: 100%.
For ANKK1: binding read 100%.
For LTK: binding read 32%.
